# Published values gathered from unrelated publications.
# Numbered parts are unrelated; each lists some results of a single study. Substitutions count along the parent as printed.

# Block 1
# Target: CCND2, cyclin fold, Cln2 fusion (human)
# Method: yeast growth competition, sequencing
# Sample: yeast
# Notes: weak parent motif
# Baseline: not given
# Direction: higher = stronger binding
# Parent: SAMHD1 docking peptide (human); ASKSRVQLFKDDP
Variant,normalised enrichment score
Q7T,0.0497
K10L,0.429
L8T,0.0558
D11R,-0.339
F9K,-0.125
K3L,0.516
F9D,0.118
F9G,-0.271
D11Q,-0.465
K10Y,-0.0904
V6I,-0.36
R5T,0.115
F9N,0.327
K10I,0.154

# Block 2
# Target: Max dimerization protein 1, bHLH-zipper, MAX partner unstated (MXD1, Homo sapiens, UniProt Q05195, residues 56-136)
# Method: protein-binding microarray
# Molecule type: double-stranded DNA, one strand shown
# Sample: in vitro
# Tested at: not given
# Notes: k-mer, scored over probes, only values ≥0.25
# Direction: higher = stronger binding
# Residues (chain): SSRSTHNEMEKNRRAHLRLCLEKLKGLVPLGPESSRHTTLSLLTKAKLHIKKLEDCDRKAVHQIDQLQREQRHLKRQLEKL
Sequence,E-score
CATATGCC,0.283
GCACGCAC,0.272
GCACGCCA,0.259
CCGCCTCA,0.26
CCATGCTA,0.276
CCACACCC,0.292
GGGGGGTA,0.33
CCACGCAA,0.252
CATGCCAA,0.322

# Block 3
# Target: RING finger protein unkempt homolog, zinc fingers 1-6, GST-SBP tag (UNK, Homo sapiens, UniProt Q9C0B0, residues 30-357)
# Method: RNA Bind-n-Seq
# Molecule type: RNA
# Sample: in vitro
# Tested at: not given
# Notes: RNA with constant flanks, human-mouse chimeric sites, ends assumed
# Baseline: input RNA pool
# Direction: higher = stronger binding
# Shared flanks, not repeated: GGGAGUUCUACAGUCCGACGAUC … CAACAGAGGAUUGAGCAUCA
# Target sequence (chain): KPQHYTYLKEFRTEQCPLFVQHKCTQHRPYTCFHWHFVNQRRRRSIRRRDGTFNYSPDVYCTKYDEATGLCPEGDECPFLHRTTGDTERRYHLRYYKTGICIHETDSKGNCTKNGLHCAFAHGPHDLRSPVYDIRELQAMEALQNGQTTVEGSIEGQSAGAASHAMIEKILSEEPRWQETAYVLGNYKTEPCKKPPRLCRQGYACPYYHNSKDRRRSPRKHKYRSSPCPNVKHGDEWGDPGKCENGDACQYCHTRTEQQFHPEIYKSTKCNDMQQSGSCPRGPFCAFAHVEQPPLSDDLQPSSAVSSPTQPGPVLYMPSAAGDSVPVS
Sequence,bound/input enrichment
CGCAGAAGGUUAAAGGGUGAAAAUGGGGUGGAAGACUGUGUCAUGGCUCUGGAGACACUGUUCAGUGUCCUGCUUUCUCUGUGCAGACUGAUGGCCCCUUACACGCCCUUUCUGACUGAG,0.0554 ratio
UUUCUACUGCAGCAAACCAUGCUACGAAUUAAGGAUCCUAAGAAGUCCCUGGAUUUUUAUACGAGGGUUCUUGGACUGACCCUCCUGCAGAAGCUUGACUUCCCUGCUAUGAAGUUUUCG,0.206 ratio
GUGUCCUGCUUUCAACUUAAAUCACUGAGGCAUCUCUACUGUUCUGUGAGCAUCAGGACUGUAGCGCUUGCCACCACCAUGAGAGUUGUUAAGCAGCCUUUCUGUGGAGGGUGGGAAUGA,0.0973 ratio
AGCACAACACCAGCUAAGCUAAGAAAUCCUUGUACAAGUGAACAAAACUGCACCAGCCCAUUUAGCUACAAAAAUGUGCUUAGUCUUACUAAUAAAGGAGAGUUUUUCAAUGAACUUGUU,0.868 ratio
UCUUAACUUAUUCAUUUAACUUAUUUUUAUAGCUAGAUAAAUAUUGUUAGUCUUAGACAAUAGCUCACAUUUUUUGAGAAGCAUGCCCUCCCUAUCCAUUGGGCCCAUAACAUGACCCAG,12.9 ratio
AUCAAGUACUUUGGGGACAUCAUUAGUGUGGGACAGAGACUGUUGCAAGGAGCUCGGAUCUUAGGGAUUCCAGUUAUCAUAACGGAACAAUACCCCAAAGGUCUUGGCAGCACCGUUCAA,0.151 ratio
GUCAACAGCUGCCUCAACCCCAUCCUCUACGCCUUCCUGGAUGAGAACUUCAAGGCCUGCUUCCGCAAGUUCUGCUGUGCUUCUGCCCUGCGCCGGGAGAUGCAGGUGUCUGACCGCGUG,0.324 ratio
GCUCUUGGGAAUGUAAUCAGCGCCUUGGGGGACAAGAGCAAGAGAGCCACCCAUGUCCCUUACAGAGAUUCCAAGCUGACAAGACUCUUGCAGGAUUCCCUCGGGGGUAACAGCCAAACC,0.176 ratio
CGGAGCCCUCCUCUCCCCCAGGCCCGAGAUAUAACCCACCAGUGCCUUCUGUCUGCUUGUCAGCUCUGUCAAUCACGCCUGUCCUCUCACGCCCACACCAAGUGCCCAAAGUGGGGAGGG,0.586 ratio
CAGGGCAUCAUCUCUCGUGCUGUUAGACACCUUUUUAAGAGUAUUGAUGAGAAAAAGCACAUAGCAAUUAAAAACGGGCUGCCCCCUCCUGAAUUCAAAGUGAAUGCCCAGUUCCUAGAG,0.872 ratio
AUAAAGGCUAUGUUGAGUGGUCCAGGUCAGUUUGCUGAGAAUGAAACCAAUGAGGUCAAUUUUAGAGAGAUCCCCUCACAUGUGCUAUCGAAAGUAUGCAUGUAUUUUACCUACAAGGUC,0.162 ratio

# Other studies, line by line
Molecule,target,test,test system,setting,how to read,measurement,value
"PhoQ, residues 284 288 289 292 302 303 SSCLAV","PhoP, residues 12 14 15 18 19 SMASL (Escherichia coli, UniProt P23836)","Sort-seq, item: YFP reporter",E. coli,"PhoQ-PhoP variant library, together with: 10 µM Mg2+","baseline: high Mg2+ state, higher = stronger signaling",fold induction,14.9

# A few entries again (block 1):
Variant,normalised enrichment score
D11R,-0.339
F9K,-0.125
K3L,0.516
F9D,0.118
